Published values of several laboratories.
Each numbered part is a random draw from the data of one study; scales do not carry over between parts. Substitutions count along the parent as printed.

Sample 1 — technique: protein-binding microarray; molecule type: double-stranded DNA, one strand shown; matrix: in vitro; concentration: 940 nM top; setting: 60-bp whole probe; together with: salmon DNA 0.4 mg/ml; baseline: random background probes; reading: higher = stronger binding; endpoint: fitted relative affinity; shared flanks, not repeated: GCCTAGCAC … GTCTTGATTCGCTTGACGCTGCTG
Target: Interferon regulatory factor 5, full length, phosphomimetic (IRF5, Homo sapiens, UniProt Q13568-2, residues 1-514, S451D/S453D/S456D/S462D)
TACGGACTGCTTTTCCTGACGTGCTAG: -0.26 z-score
AGAGATGTGGGACTCACCTAGTGCTAG: -0.491 z-score
GACGGTATCGGTCTCGGCACGTGCTAG: 7.54 z-score
TTAGGTCTCGGGTATCGGTTAGTGCTA: 4.27 z-score
GACGGCCTCCTTTTCCTGACGTGCTAG: 0.369 z-score
GACGGTATCGACAGTGGGGACGTGCTA: 3.88 z-score
TTAGAACAGGGGTATCGATTAGTGCTA: 2.75 z-score
GACGGTTTCGCCACTGGGGACGTGCTA: 5.65 z-score

Sample 2 — target: JUNB, bZIP domain (human); technique: DHFR protein complementation; matrix: yeast; baseline: wild-type JUN-FOS pair; reading: higher = stronger binding; endpoint: binding fitness
Setting: single substitutions, most at no-binding floor
Parent: JUN, bZIP domain (human); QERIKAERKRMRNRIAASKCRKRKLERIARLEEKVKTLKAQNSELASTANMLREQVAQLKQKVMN; partner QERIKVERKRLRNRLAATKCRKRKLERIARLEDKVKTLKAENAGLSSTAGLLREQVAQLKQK
T37I: -0.98 natural log
N42M: -1.54 natural log
A49V: -0.0739 natural log
E54L: -1.34 natural log
Q41G: -1.5 natural log
M51P: -1.5 natural log
R53K: -1.21 natural log
E32K: -1.19 natural log

Sample 3 — target: CCNB1, cyclin fold, Cln2 fusion (human); technique: yeast growth competition, sequencing; matrix: yeast; setting: strong parent motif; baseline: not given; reading: higher = stronger binding; endpoint: normalised enrichment score
Parent: RBL2 docking peptide (human); STTRRRLFVENDS
STTRRRLFVKNDS [E10K]: 0.455
STTRRRLSVENDS [F8S]: 2.57
STTRRRLQVENDS [F8Q]: 0.366
STTRRALFVENDS [R6A]: 0.542
STTRRRWFVENDS [L7W]: 0.85
STTRRRLFVENKS [D12K]: 0.902
STTRRRLPVENDS [F8P]: -0.0355
STTPRRLFVENDS [R4P]: 0.365

Other studies, line by line
DHIPIINTL
binding (HLA class I histocompatibility antigen, A alpha chain, allele A*80:01 (Homo sapiens, UniProt P04439); peptide-MHC binding; peptide; concentration not given): inactive

Repeated from above (sample 1):
AGAGATGTGGGACTCACCTAGTGCTAG: -0.491 z-score
GACGGTTTCGCCACTGGGGACGTGCTA: 5.65 z-score
TTAGAACAGGGGTATCGATTAGTGCTA: 2.75 z-score
GACGGCCTCCTTTTCCTGACGTGCTAG: 0.369 z-score
